Published values pooled from the literature.
Protocols differ between the studies behind these lines.
Sequence of UniProt P49761 (whole entry, looked up): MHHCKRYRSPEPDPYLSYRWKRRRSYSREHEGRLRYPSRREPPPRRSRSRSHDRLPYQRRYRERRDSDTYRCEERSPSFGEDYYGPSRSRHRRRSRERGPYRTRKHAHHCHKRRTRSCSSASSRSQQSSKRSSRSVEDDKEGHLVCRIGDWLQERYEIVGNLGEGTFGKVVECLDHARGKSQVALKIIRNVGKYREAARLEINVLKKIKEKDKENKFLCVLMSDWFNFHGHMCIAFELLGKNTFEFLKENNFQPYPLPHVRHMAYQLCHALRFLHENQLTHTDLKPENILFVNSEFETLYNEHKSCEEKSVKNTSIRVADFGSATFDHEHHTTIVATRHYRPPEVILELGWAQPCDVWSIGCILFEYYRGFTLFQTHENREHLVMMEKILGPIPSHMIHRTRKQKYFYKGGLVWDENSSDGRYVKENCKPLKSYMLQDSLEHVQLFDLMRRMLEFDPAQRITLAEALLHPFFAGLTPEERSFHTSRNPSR
Sequence of UniProt P06239 (whole entry, looked up): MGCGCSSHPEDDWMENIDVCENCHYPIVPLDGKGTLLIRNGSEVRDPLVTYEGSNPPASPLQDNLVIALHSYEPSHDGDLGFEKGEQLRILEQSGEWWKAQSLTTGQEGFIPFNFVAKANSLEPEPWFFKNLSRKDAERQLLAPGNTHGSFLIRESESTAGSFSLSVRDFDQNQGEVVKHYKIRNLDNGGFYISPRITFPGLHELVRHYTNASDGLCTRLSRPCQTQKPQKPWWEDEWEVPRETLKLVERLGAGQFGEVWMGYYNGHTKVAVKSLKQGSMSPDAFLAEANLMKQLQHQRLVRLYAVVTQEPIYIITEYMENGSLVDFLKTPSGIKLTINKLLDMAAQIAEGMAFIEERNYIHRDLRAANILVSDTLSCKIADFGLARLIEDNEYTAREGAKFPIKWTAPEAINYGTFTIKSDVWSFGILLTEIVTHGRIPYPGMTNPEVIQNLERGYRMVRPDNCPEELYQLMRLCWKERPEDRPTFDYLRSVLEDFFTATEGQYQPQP
Sequence of UniProt O14920 (whole entry, looked up): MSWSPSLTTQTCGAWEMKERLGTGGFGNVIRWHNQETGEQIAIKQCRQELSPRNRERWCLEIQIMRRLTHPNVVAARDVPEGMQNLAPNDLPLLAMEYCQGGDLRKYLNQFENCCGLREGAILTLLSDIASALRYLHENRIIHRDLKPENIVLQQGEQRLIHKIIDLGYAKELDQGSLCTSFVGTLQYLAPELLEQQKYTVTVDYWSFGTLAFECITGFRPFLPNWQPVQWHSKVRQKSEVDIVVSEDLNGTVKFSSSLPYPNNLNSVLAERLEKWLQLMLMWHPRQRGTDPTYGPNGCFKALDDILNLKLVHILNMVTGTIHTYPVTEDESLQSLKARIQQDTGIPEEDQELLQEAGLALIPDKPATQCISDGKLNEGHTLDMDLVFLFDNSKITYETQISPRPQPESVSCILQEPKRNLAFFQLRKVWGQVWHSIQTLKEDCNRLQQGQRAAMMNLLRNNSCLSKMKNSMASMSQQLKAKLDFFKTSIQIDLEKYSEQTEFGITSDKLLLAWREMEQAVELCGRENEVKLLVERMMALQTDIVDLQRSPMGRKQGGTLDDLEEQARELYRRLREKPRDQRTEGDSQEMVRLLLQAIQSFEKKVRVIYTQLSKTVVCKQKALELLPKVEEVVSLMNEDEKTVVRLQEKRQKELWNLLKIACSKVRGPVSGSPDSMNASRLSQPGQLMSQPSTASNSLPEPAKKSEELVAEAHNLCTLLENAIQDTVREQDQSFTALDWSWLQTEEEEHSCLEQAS
Sequence of UniProt P22607 (whole entry, looked up): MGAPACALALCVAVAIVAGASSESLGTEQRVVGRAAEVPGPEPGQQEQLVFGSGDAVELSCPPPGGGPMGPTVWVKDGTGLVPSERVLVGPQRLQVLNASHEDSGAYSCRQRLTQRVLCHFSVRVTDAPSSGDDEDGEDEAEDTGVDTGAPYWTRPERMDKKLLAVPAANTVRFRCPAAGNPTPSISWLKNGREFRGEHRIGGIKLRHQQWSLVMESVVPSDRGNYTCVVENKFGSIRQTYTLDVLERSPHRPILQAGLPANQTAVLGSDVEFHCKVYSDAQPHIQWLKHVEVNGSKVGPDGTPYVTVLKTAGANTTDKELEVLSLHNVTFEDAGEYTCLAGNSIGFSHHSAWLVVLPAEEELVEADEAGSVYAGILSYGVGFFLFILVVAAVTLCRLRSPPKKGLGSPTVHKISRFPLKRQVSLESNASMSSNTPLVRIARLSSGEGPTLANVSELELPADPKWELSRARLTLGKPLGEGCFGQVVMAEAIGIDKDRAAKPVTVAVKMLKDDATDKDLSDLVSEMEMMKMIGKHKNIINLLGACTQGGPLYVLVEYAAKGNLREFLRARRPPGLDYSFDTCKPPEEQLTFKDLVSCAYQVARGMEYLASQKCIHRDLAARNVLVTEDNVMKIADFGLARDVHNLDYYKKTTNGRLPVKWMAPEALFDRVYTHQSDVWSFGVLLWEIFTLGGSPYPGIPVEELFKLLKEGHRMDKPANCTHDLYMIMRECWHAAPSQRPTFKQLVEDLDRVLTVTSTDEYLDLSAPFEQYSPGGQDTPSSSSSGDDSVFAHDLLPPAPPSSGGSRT
Sequence of UniProt O94768 (whole entry, looked up): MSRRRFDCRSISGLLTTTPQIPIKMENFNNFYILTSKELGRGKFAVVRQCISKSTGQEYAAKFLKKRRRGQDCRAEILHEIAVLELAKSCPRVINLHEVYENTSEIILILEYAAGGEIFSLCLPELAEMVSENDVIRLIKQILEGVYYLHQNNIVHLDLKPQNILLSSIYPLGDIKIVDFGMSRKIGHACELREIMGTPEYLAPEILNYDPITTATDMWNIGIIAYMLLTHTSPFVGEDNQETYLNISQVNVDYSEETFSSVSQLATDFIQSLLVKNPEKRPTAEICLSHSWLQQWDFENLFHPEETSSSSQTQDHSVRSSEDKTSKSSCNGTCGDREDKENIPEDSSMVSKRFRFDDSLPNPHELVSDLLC

Structure (SMILES)	target or system	test	test system	conditions	endpoint	value
C=CC(=O)N1CCC(COCC(=O)N2CCN(c3nc(-c4cnc(N)nc4C(F)F)nc(N4CCOC[C@@H]4C)n3)CC2)CC1	LCK (Homo sapiens, UniProt P06239)	binding, competition with immobilised ligand	–	1 µM	remaining binding	94%
C[C@@]12COCO[C@@H]1CC[C@]1(C)[C@@H]2CC[C@@H]2CN(Cc3ccco3)[C@@H](C3=CCOC3=O)C[C@H]21	MRC5	cell growth or viability, ATP luminescence	–	25 µM, 72 h	cell death	-13.1%
Nc1ccn([C@@H]2O[C@H](CO)[C@@H](O)C2(F)F)c(=O)n1	MCF7	cell growth or viability, MTT	–	1.25 µg/mL, 24 h	viability	68.9%
CC(=O)OC[C@@]1(C)[C@H]2CC[C@@H]3CN(Cc4ccc(C)cc4)[C@@H](C4=CCOC4=O)C[C@H]3[C@]2(C)CC[C@H]1OC(C)=O	MRC5	cell growth or viability, ATP luminescence	–	25 µM, 72 h	cell death	-11.1%
CC1(F)CN(C(=O)Cn2c(=O)c(C(=O)NCc3ccc(Cl)cc3)cc3nc(N4CCN(CC(=O)O)C4=O)cnc32)C1	MRC5	cell growth or viability	–	–	CC50	> 40 µM
O=c1nc(N2CCN(CC3CCCCC3)CC2)sc2c([N+](=O)[O-])cc(C(F)(F)F)cc12	–	–	CD-1 mouse, plasma	intravenous, 10 mg/kg, 4.98 min	concentration	15600 ng/mL
Fc1cc(F)c(-c2c(Cl)nc(-c3cccs3)nc2N2CCCOCC2)c(F)c1	HEK293	cell growth or viability, resazurin	–	48 h	CC50	> 50 µM
CC1(C)OC[C@@]2(C)[C@H]3CC[C@@H]4CN(Cc5ccc(Br)cc5)[C@@H](C5=CCOC5=O)C[C@H]4[C@]3(C)CC[C@H]2O1	MRC5	cell growth or viability, ATP luminescence	–	25 µM, 72 h	cell death	12.9%
CCCCC(=O)Nc1ccc(-c2ccc3ncn(CCC)c(=O)c3c2)cn1	STK17B (Homo sapiens, UniProt O94768)	binding, competition with immobilised ligand	–	0.5 µM	remaining binding	100%
Fc1cc(F)c(-c2c(Cl)nc(-c3cccs3)nc2NC2COC2)c(F)c1	HEK293	cell growth or viability, resazurin	–	48 h	CC50	14.4 µM
COc1cccc(NC(=O)Nc2ccc(Oc3nc4ccccc4n4cnnc34)cc2)c1	WISH	cell growth or viability, MTT	–	1.56 µM, 24 h	viability	100%
COc1cc(/C=C/C(=O)C(=Cc2ccc(O)cc2)C(=O)/C=C/c2ccc(O)c(OC)c2)ccc1O	WRL68	cell growth or viability, MTT	–	99 µg/mL, 48 h	viability	82.5%
CC(=O)OC[C@@]1(C)[C@H]2CC[C@@H]3CN(Cc4ccc(C(C)(C)C)cc4)[C@@H](C4=CCOC4=O)C[C@H]3[C@]2(C)CC[C@H]1OC(C)=O	MRC5	cell growth or viability, ATP luminescence	–	25 µM, 72 h	cell death	11.3%
COc1cc(-c2cncc3c2CN(C)Cc2cc(N4CCNCC4)ccc2-3)cc(OC)c1OC	FGFR3 (Homo sapiens, UniProt P22607)	enzyme activity, inhibitor	–	1 µM	remaining activity	93%
CC1(CNc2nc(-c3cccs3)nc(Cl)c2-c2c(F)cc(F)cc2F)CC1	HEK293	cell growth or viability, resazurin	–	48 h	CC50	> 50 µM
Cc1cc([C@@H](C)Nc2ccccc2C(=O)O)c2nc(N3CCC(F)(F)CC3)c(C#N)c(=O)n2c1	IKBKB (Homo sapiens, UniProt O14920)	binding, competition with immobilised ligand	–	1 µM	remaining binding	100%
OCCN(CCO)c1nc(-c2cccs2)nc(Cl)c1-c1c(F)cc(F)cc1F	HEK293	cell growth or viability, resazurin	–	48 h	CC50	34.9 µM
CNc1ncc2c(/C=C/C(=O)N3CCC(OC)CC3)nn(Cc3cccc(C(F)(F)F)c3)c2n1	CLK3 (Homo sapiens, UniProt P49761)	enzyme activity, inhibitor, radiometric	–	1 µM	remaining activity	105%

Excerpt of the above:
Structure (SMILES)	target or system	test	test system	conditions	endpoint	value
COc1cccc(NC(=O)Nc2ccc(Oc3nc4ccccc4n4cnnc34)cc2)c1	WISH	cell growth or viability, MTT	–	1.56 µM, 24 h	viability	100%
